Assay results pooled from the literature.
Parts stem from different laboratories: compare values within a part only.
Sequence of UniProt P42336 (whole entry, unmodified, looked up): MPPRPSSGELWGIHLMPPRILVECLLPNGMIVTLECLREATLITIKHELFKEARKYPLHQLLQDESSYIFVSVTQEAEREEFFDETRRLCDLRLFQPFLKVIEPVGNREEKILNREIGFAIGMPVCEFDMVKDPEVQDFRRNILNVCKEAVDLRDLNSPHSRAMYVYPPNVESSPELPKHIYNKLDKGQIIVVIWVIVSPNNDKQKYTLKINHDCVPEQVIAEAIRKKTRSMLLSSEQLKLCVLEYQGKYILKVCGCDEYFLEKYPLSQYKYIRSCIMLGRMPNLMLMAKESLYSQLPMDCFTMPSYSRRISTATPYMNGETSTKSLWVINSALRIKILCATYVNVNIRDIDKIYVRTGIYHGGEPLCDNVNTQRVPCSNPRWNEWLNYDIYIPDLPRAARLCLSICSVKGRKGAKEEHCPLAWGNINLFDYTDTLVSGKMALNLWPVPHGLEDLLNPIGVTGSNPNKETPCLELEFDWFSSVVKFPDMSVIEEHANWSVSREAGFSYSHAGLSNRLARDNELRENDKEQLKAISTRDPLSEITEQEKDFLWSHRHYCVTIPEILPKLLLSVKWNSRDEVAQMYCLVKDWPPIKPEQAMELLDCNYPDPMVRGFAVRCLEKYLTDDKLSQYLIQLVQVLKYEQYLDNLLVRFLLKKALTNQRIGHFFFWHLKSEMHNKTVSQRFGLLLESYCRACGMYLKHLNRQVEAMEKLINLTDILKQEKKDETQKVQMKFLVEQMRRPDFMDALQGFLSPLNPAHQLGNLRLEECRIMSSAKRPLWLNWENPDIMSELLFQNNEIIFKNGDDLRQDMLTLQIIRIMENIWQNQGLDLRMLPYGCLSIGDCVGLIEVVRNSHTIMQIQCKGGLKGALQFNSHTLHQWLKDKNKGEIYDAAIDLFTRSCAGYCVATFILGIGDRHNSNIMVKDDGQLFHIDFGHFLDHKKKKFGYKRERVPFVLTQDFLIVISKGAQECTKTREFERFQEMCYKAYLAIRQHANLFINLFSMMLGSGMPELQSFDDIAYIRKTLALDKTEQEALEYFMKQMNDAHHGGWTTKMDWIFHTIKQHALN
Sequence of UniProt P49761 (whole entry, looked up): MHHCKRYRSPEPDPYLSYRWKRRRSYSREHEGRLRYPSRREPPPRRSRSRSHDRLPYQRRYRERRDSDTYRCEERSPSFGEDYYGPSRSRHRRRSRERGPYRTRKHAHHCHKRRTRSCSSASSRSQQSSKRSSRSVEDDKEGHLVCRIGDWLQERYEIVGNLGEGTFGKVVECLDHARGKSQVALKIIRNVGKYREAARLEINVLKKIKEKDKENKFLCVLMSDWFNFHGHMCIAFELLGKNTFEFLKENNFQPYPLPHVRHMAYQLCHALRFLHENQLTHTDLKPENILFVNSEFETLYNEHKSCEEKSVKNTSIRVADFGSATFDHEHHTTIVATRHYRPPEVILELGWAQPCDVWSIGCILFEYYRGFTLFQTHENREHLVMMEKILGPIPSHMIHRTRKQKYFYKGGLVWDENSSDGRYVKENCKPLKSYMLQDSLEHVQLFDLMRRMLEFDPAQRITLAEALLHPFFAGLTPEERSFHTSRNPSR
Sequence of UniProt Q9NWZ3 (whole entry, looked up): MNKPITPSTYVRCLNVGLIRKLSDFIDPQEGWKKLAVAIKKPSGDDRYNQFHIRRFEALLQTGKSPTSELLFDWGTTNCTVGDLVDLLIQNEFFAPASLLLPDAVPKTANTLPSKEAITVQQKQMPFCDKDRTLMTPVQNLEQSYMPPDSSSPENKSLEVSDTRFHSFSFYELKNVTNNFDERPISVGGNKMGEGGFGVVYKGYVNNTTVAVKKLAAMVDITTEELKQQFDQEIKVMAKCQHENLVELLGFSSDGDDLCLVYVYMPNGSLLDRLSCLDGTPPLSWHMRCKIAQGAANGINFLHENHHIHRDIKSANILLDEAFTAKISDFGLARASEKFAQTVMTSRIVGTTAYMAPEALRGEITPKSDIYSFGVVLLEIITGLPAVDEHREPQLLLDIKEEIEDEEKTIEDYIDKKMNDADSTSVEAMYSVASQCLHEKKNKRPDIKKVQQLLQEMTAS
Sequence of UniProt P53778 (whole entry, looked up): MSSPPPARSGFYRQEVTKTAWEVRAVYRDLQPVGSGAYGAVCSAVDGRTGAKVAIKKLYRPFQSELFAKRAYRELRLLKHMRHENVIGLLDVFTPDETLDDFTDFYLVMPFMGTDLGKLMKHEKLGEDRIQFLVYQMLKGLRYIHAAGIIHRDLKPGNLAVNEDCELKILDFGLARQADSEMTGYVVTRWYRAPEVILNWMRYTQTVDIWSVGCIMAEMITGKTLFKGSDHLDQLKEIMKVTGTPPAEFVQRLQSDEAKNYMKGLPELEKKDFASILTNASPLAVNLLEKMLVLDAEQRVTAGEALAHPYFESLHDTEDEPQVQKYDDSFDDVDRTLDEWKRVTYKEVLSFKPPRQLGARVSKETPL
Sequence of UniProt O95747 (whole entry, looked up): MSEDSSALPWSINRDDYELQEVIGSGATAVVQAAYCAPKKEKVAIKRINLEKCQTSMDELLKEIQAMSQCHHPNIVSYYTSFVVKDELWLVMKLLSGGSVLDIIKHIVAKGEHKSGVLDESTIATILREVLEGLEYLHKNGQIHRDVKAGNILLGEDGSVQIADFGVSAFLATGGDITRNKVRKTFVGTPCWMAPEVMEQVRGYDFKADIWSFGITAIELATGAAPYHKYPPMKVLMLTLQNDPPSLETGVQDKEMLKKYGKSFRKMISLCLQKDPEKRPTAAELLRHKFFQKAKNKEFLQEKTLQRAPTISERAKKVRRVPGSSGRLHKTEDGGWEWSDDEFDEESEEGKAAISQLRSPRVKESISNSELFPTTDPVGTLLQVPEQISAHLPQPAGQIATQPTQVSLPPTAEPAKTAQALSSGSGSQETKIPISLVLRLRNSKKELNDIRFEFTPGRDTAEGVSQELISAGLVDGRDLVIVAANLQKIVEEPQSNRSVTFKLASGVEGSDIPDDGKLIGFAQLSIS
Sequence of UniProt P46734 (whole entry, looked up): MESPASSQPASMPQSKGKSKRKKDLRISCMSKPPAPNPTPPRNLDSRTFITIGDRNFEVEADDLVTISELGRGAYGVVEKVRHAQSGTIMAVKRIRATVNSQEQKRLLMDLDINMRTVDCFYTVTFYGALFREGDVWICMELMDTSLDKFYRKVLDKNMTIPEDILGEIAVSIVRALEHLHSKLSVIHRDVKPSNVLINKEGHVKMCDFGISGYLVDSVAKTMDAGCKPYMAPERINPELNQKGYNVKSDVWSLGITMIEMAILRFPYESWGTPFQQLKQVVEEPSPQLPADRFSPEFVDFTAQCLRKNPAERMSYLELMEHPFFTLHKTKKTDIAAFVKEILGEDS
Sequence of UniProt Q00526 (whole entry, looked up): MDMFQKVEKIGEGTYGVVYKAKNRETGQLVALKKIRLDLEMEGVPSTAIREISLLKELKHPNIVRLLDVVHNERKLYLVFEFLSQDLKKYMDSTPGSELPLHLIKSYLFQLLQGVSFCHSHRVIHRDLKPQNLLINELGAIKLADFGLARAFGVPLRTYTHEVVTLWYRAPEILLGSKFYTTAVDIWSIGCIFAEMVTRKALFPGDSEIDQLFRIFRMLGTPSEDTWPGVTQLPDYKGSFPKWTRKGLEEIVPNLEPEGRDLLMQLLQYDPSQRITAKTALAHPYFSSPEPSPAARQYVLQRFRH

Sample 1 — method: universal PBM; molecule type: double-stranded DNA, one strand shown; medium: in vitro; tested at: 600 nM; direction: higher = stronger binding
Target: Sal-like protein 4, full length isoform A (SALL4, Homo sapiens, UniProt Q9UJQ4, residues 1-1053)
Sequence of UniProt Q9UJQ4 (whole entry, looked up): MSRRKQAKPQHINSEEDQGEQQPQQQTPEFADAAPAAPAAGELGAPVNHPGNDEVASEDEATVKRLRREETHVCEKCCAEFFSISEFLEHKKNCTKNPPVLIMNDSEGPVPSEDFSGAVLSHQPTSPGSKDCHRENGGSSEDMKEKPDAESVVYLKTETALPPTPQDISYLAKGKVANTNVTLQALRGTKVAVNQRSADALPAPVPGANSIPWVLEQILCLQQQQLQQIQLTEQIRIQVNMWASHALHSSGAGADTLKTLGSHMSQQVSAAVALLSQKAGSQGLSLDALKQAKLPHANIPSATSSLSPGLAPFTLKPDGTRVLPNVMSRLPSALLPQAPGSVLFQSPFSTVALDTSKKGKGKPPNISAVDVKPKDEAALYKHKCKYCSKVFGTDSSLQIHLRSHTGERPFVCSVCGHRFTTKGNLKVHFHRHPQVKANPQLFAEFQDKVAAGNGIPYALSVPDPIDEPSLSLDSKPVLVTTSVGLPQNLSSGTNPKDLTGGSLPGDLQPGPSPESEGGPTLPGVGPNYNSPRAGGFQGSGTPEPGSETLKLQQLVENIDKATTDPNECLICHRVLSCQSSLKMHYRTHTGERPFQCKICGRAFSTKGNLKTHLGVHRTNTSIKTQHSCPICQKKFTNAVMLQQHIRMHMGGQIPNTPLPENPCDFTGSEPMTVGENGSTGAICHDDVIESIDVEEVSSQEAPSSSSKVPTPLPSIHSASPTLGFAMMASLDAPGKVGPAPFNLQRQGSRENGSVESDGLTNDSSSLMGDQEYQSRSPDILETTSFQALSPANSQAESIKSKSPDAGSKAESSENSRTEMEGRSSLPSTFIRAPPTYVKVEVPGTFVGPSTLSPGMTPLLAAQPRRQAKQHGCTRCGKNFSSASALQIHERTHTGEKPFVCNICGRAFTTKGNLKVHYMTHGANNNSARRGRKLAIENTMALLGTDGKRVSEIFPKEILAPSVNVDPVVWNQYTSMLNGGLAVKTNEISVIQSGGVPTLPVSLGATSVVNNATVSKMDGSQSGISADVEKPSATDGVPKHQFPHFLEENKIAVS
Setting: 8-mer, flanks averaged, mean of replicates
Oligonucleotide	E-score
AGTATTTG	0.205
AATATTGT	0.409
CGCCCCAC	-0.31
GACCTGAA	-0.117
AGCCTTGA	-0.0215
GTTACTGA	0.174
CATGTAAC	0.193
GCCCTTCA	-0.187

Sample 2 — method: competition protein-binding microarray; molecule type: double-stranded DNA, one strand shown; medium: in vitro; tested at: 2 µM; added: Pho4 competitor, 0.05 µM; direction: higher = stronger binding; constant ends, left off below: … GTCTTGATTCGCTTGACGCTGCTG
Target: Centromere-binding protein 1, full length, His-tagged (CBF1, Saccharomyces cerevisiae, UniProt P17106, residues 1-351)
Sequence of UniProt P17106 (whole entry, looked up): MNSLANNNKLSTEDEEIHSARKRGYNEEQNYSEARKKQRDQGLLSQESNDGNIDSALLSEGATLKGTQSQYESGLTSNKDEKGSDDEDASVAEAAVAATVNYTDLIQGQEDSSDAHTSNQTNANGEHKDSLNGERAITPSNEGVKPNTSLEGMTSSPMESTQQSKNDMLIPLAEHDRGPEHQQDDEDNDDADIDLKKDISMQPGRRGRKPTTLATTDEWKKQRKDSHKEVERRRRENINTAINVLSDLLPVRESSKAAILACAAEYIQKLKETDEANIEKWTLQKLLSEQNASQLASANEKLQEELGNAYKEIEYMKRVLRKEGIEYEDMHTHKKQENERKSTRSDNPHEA
Setting: whole 60-bp probe, lowest competitor level
Oligonucleotide	fluorescence intensity [a.u.]
CGGGGTTAAGTTTTTCACGTGGCGTGCCGTCGGCAG	487
AAATTACTAAGTTGCAGAGTGGGTGACGCCGTATGA	61.6
CAGAAGCCGCGATTTCACATGCCGGCCATTATGGCA	60.5
TAGAGGTGCCATTGTCATGTTCAGATCCAAAGAAGG	55.1
GCCAGTCTGAGAAAGCACGCTGCTTGTGCTTGTTGG	64.9
ATTTTTTTAAAGAATCGTGTGGTAAACAAGCTTCCA	75.7
TCACTCATTCTAAAACCCGTGATGGCGCATCATACT	280
AAATTACTAAGTTGTACAGTGGGTGACGCCGTATGA	88.3

Sample 3 — SMILES: CC(=O)c1ccc(N2CCOCC2)cc1O; observed: enzyme activity; mode: inhibitor; tested at: 0.5 µM; relative to: control
target	remaining activity [%]
IKBKE (Homo sapiens, UniProt Q14164)	105
STK10 (Homo sapiens, UniProt O94804)	101
CHEK2 (Homo sapiens, UniProt O96017)	104
cGMP-dependent protein kinase 1, isoform beta (PRKG1, Homo sapiens, UniProt Q13976)	84.1
STK39 (Homo sapiens, UniProt Q9UEW8)	90.9
OXSR1 (Homo sapiens, UniProt O95747)	115
Tyrosine-protein kinase Lyn, isoform B (LYN, Homo sapiens, UniProt P07948)	98.8
TGFBR1 (Homo sapiens, UniProt P36897)	96.6
GRK3 (Homo sapiens, UniProt P35626)	89.1
CAMK2D (Homo sapiens, UniProt Q13557)	100
Protein kinase C beta type, isoform beta-I (PRKCB, Homo sapiens, UniProt P05771)	96.3

Sample 4 — observed: cell-free assay; method: competition with immobilised ligand; tested at: 1 µM
SMILES: COc1cc(-c2cn(C3CCc4ccccc4N(CC(F)(F)F)C3=O)nn2)ccc1-n1ccc(C)n1 (stereo not drawn)
target	remaining binding [%]
CLK3 (Homo sapiens, UniProt P49761)	95
CDK3 (Homo sapiens, UniProt Q00526)	100
PIK3CA (Homo sapiens, UniProt P42336, C420R)	68
MAP2K3 (Homo sapiens, UniProt P46734)	89
IRAK4 (Homo sapiens, UniProt Q9NWZ3)	95
MAPK7 (Homo sapiens, UniProt Q13164)	100
NEK9 (Homo sapiens, UniProt Q8TD19)	100
MARK2 (Homo sapiens, UniProt Q7KZI7)	93
MAST1 (Homo sapiens, UniProt Q9Y2H9)	100
PIM3 (Homo sapiens, UniProt Q86V86)	100
RET (Homo sapiens, UniProt P07949)	91
MAPK12 (Homo sapiens, UniProt P53778)	100
TLK1 (Homo sapiens, UniProt Q9UKI8)	84
MAPK15 (Homo sapiens, UniProt Q8TD08)	100
CDK8 (Homo sapiens, UniProt P49336)	90

A few entries again (sample 3):
target	remaining activity [%]
STK39 (Homo sapiens, UniProt Q9UEW8)	90.9
STK10 (Homo sapiens, UniProt O94804)	101
IKBKE (Homo sapiens, UniProt Q14164)	105
Protein kinase C beta type, isoform beta-I (PRKCB, Homo sapiens, UniProt P05771)	96.3
cGMP-dependent protein kinase 1, isoform beta (PRKG1, Homo sapiens, UniProt Q13976)	84.1
